Literature values that unrelated publications cite.
Protocols differ between the studies behind these lines.
Sequence of UniProt Q86Z02 (whole entry, looked up): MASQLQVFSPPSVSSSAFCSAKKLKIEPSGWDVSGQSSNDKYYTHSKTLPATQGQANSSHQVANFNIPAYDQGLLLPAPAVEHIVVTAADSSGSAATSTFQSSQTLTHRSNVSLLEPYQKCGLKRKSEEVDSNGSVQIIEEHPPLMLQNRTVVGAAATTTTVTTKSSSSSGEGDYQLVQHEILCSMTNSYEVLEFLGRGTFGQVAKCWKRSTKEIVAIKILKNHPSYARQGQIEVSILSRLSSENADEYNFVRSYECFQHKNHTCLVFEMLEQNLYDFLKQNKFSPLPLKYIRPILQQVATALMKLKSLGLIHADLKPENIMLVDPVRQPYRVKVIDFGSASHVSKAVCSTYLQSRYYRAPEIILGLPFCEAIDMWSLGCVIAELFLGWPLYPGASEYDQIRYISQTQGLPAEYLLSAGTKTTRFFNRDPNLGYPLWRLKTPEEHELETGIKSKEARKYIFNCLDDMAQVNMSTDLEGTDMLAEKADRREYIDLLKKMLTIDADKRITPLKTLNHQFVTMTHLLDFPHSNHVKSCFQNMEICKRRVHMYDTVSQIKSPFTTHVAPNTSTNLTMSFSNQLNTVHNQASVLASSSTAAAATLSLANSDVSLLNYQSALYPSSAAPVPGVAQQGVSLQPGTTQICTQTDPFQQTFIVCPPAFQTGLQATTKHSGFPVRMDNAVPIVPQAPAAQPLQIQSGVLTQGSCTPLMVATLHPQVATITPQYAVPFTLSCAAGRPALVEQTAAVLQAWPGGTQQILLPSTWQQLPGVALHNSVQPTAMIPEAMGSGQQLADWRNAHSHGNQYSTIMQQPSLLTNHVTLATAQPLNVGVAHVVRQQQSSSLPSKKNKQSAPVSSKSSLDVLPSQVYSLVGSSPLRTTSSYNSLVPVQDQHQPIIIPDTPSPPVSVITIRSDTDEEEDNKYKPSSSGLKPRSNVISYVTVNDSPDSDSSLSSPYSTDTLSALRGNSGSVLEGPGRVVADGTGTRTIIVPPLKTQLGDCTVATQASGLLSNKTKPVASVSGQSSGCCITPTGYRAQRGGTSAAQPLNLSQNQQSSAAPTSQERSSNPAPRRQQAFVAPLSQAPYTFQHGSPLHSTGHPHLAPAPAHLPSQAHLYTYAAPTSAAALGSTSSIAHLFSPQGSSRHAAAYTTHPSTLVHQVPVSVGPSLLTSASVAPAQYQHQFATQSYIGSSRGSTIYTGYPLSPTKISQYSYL

Cc1nc(NC(=O)N2CCC[C@H]2C(N)=O)sc1-c1ccnc(C(C)(C)C(F)(F)F)c1
unchanged drug recovered (human, urine; oral, 400 mg, time not given, radiolabelled, fasted; relative to: dose): 2%

Cn1c(=O)oc2ccc(-c3ccc(C[C@@H](C#N)NC(=O)[C@@H]4CNCCCO4)cc3)cc21
unchanged drug excreted in urine (human, urine; dose not given; relative to: dose): ~20%

COc1cc(N2CCC(N3CCN(C)CC3)CC2)ccc1Nc1ncc(Cl)c(Nc2ccccc2P(C)(C)=O)n1
unchanged compound excreted (human, urine; oral, 180 mg; relative to: radioactivity): 86%

CO[C@]1(C(=O)N[C@@H](C)c2ccc(-n3cc(F)cn3)nc2)CC[C@H](c2nc(C)cc(Nc3cc(C)[nH]n3)n2)CC1
unchanged drug recovered (healthy human, urine and feces; dose not given, time not given; relative to: dose): ~70.9%

O=C(c1cccnc1-c1ccncc1)N1CCC(O)(Cc2ccccc2)CC1
unchanged drug excreted in urine (human, urine; oral, 300 mg single dose; relative to: dose): 0.1%

CC1=NN(c2ccc(C)c(C)c2)C(=O)/C1=N\Nc1cccc(-c2cccc(C(=O)O)c2)c1O
unchanged drug in feces (human; dose not given; relative to: oral dose): 20%

Cc1cc(C)c(CNC(=O)c2cc(Cl)c3c(c2C)O[C@@](C)([C@H]2CC[C@H](N(C)C)CC2)O3)c(=O)[nH]1
unchanged drug in faeces (human; dose not given, mass balance; relative to: dose): 64.9%

Nc1cc(C(F)(F)F)c(-c2nc(N3CCOCC3)nc(N3CCOCC3)n2)cn1
remaining activity (HIPK1 (Homo sapiens, UniProt Q86Z02); enzyme activity; 10 µM; relative to: untreated): 76%

COC(=O)N[C@@H](C)CNc1nccc(-c2cn(C(C)C)nc2-c2cc(Cl)cc(NS(C)(=O)=O)c2F)n1
unchanged drug excreted (human, feces; dose not given): 5%
